{"data": "Assay results collected from several papers", "note": "Numbered parts are unrelated; each lists some results of a single study.", "chain of UniProt P07332 (whole entry, looked up)": "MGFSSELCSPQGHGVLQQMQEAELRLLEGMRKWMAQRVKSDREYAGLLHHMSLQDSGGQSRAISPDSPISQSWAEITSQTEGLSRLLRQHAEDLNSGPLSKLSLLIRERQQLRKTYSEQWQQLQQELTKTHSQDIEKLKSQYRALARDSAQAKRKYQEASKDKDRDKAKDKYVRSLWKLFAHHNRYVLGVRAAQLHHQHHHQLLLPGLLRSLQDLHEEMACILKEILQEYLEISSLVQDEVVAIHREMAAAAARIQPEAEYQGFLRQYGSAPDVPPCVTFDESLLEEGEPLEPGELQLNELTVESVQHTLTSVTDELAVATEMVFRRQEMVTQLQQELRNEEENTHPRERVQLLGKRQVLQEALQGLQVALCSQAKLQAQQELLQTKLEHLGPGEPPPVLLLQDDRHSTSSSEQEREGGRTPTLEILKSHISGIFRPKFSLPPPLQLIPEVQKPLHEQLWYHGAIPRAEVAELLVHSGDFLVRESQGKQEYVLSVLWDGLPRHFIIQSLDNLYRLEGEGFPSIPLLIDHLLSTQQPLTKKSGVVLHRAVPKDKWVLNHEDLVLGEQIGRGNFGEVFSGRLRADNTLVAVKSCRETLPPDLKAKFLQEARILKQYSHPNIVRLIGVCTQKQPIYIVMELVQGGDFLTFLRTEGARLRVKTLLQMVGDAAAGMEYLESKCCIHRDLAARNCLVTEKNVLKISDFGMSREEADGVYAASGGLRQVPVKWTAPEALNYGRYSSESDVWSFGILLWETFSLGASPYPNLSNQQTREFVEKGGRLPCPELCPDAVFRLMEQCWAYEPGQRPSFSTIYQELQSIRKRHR", "chain of UniProt P37023 (whole entry, looked up)": "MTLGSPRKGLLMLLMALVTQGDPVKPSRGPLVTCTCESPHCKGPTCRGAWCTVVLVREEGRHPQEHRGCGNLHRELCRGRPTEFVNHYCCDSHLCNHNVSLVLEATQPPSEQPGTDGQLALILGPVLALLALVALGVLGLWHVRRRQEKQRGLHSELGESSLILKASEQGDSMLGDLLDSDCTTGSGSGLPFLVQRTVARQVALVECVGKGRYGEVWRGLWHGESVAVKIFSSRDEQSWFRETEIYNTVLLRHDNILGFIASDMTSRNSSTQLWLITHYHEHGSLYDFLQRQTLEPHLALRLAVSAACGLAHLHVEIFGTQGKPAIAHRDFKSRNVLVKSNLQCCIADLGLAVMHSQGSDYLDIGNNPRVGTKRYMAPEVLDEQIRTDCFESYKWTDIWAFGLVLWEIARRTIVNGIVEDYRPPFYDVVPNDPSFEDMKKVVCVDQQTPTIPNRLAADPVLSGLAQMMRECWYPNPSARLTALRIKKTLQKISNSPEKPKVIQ", "chain of UniProt Q9P0L2 (whole entry, looked up)": "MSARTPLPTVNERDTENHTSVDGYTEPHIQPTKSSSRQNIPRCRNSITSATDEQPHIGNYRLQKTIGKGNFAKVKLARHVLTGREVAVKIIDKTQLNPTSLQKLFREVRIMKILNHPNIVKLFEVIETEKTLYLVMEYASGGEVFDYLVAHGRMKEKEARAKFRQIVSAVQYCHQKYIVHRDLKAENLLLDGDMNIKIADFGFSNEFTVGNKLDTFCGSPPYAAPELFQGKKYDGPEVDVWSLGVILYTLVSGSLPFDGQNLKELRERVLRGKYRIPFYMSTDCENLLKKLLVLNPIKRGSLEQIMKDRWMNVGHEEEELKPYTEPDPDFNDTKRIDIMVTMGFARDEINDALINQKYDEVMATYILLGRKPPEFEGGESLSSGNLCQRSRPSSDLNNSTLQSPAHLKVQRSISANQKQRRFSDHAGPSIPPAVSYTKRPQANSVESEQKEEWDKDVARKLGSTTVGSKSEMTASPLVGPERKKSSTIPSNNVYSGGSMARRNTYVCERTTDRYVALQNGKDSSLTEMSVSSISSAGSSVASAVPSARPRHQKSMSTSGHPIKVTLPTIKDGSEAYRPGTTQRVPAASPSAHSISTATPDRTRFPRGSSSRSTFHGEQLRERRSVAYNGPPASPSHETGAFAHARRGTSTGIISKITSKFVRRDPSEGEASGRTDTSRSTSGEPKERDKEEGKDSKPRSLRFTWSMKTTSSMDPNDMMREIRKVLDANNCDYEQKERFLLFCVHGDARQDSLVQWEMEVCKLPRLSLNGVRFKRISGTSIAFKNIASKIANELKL", "chain of UniProt Q8N5S9 (whole entry, looked up)": "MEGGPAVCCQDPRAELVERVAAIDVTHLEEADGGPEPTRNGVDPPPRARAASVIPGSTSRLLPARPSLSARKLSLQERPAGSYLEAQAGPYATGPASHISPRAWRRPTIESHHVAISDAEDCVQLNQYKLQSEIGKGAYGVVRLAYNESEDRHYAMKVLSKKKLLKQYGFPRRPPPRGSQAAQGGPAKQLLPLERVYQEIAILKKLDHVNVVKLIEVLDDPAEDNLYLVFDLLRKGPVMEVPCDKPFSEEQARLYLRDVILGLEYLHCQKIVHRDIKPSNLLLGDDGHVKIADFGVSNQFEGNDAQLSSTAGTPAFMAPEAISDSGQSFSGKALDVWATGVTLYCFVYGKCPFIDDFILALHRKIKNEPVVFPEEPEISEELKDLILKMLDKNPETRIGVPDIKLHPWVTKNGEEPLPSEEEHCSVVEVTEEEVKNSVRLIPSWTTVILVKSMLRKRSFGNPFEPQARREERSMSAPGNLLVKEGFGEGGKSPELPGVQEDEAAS", "chain of UniProt O60674 (whole entry, looked up)": "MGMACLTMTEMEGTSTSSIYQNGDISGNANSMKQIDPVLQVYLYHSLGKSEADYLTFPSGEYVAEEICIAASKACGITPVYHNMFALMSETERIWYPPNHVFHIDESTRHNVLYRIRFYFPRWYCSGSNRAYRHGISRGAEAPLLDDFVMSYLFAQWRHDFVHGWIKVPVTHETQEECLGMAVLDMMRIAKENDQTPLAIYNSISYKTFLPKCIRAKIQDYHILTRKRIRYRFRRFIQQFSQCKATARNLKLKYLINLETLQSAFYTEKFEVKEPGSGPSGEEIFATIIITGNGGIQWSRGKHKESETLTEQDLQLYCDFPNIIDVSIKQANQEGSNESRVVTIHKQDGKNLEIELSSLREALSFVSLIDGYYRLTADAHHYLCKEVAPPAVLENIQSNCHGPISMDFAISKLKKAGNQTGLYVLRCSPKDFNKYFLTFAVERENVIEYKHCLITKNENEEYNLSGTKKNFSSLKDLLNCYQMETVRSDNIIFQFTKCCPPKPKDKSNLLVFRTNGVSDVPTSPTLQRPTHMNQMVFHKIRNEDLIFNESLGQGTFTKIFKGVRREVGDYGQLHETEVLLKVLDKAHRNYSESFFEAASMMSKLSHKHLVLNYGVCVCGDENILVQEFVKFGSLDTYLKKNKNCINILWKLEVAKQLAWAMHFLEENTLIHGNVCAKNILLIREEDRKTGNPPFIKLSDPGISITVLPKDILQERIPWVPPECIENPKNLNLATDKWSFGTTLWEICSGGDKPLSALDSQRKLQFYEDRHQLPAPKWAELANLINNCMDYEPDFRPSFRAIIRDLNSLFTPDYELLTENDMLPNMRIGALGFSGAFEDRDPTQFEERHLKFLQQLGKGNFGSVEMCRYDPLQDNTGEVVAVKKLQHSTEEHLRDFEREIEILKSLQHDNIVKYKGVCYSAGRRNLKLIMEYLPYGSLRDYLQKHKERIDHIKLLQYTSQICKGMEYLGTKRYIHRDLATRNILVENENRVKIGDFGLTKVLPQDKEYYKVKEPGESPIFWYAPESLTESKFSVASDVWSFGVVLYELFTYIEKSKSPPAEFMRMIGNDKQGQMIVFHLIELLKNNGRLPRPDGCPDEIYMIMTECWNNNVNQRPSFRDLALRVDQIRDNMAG", "chain of UniProt Q8IWQ3 (whole entry, looked up)": "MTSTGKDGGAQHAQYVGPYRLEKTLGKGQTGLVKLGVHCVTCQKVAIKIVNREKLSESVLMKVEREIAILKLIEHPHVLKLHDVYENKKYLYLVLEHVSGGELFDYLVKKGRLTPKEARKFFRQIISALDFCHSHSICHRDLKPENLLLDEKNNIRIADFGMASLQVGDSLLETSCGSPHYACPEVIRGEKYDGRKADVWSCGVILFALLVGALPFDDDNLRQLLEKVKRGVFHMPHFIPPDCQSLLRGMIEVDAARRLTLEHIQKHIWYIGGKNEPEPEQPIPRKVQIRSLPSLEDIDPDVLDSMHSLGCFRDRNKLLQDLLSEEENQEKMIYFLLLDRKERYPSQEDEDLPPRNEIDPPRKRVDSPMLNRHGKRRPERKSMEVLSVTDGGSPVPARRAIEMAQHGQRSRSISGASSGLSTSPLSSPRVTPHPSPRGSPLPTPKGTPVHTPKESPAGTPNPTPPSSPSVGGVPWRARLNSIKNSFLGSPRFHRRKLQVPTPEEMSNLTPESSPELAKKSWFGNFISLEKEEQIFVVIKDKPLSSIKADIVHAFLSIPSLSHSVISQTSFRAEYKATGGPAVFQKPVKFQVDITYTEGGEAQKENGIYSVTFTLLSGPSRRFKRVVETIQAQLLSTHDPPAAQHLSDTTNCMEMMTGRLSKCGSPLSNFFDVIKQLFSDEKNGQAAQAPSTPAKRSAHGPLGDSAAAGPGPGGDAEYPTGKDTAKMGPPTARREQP", "chain of UniProt Q13153 (whole entry, looked up)": "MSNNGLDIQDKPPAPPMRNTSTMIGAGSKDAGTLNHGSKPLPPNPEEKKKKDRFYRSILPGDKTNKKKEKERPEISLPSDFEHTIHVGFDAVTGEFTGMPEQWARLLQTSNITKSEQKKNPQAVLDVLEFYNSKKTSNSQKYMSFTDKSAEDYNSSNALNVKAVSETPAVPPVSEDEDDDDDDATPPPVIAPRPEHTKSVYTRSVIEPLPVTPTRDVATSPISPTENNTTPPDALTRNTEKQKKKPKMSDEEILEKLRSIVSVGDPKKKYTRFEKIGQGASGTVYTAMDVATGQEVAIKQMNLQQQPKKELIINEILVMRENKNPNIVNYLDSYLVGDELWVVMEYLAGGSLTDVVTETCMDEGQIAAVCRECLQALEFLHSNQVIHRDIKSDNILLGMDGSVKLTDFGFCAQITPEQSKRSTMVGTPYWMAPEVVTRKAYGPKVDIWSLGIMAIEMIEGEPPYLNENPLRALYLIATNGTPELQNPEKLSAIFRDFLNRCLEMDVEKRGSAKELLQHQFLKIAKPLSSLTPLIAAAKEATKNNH"}
{"data": "Study 1", "target": "Histone acetyltransferase KAT6A, winged helix 2, GST fusion (KAT6A, Homo sapiens, UniProt Q92794, residues 85-181)", "method": "protein binding microarray", "molecule type": "double-stranded DNA, one strand shown", "sample": "in vitro", "concentration": "not given", "setting": "8-mer, flanks averaged, mean of 2 arrays, mostly near background", "reference": "not given", "reading": "higher = stronger binding", "Construct (chain)": "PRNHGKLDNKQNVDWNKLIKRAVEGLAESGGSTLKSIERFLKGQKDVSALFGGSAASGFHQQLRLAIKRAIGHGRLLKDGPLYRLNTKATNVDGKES"}
{"Oligonucleotide": "TCGAAGCA", "E-score": 0.0138}
{"Oligonucleotide": "CCCGGGGC", "E-score": 0.236}
{"Oligonucleotide": "CACCAACG", "E-score": -0.0516}
{"Oligonucleotide": "AAGATTTC", "E-score": -0.0833}
{"Oligonucleotide": "TATATAGA", "E-score": -0.109}
{"Oligonucleotide": "CTTAGGCA", "E-score": -0.0378}
{"Oligonucleotide": "AACGAACA", "E-score": 0.0333}
{"Oligonucleotide": "CCATGGAA", "E-score": -0.0797}
{"data": "Study 2", "Structure (SMILES)": "CCC(=O)Nc1ccc2ncnc(Nc3cccc(Br)c3)c2c1", "observed": "enzyme activity", "action": "inhibitor", "concentration": "0.5 µM", "reference": "control"}
{"target": "PRKCZ (Homo sapiens, UniProt Q05513)", "remaining activity": "95.7%"}
{"target": "ACVRL1 (Homo sapiens, UniProt P37023)", "remaining activity": "97.4%"}
{"target": "CSNK1D (Homo sapiens, UniProt P48730)", "remaining activity": "96.9%"}
{"target": "JAK2 (Homo sapiens, UniProt O60674)", "remaining activity": "103%"}
{"target": "Cyclin-dependent kinase 2, with cyclin E (CDK2, Homo sapiens, UniProt P24941)", "remaining activity": "84.9%"}
{"target": "PAK1 (Homo sapiens, UniProt Q13153)", "remaining activity": "96.3%"}
{"target": "BRSK2 (Homo sapiens, UniProt Q8IWQ3)", "remaining activity": "94.3%"}
{"target": "FES (Homo sapiens, UniProt P07332)", "remaining activity": "102%"}
{"target": "CAMKK1 (Homo sapiens, UniProt Q8N5S9)", "remaining activity": "99.8%"}
{"target": "FLT1 (Homo sapiens, UniProt P17948)", "remaining activity": "86.9%"}
{"target": "RPS6KA3 (Homo sapiens, UniProt P51812)", "remaining activity": "95%"}
{"target": "MAP3K20 (Homo sapiens, UniProt Q9NYL2)", "remaining activity": "96%"}
{"target": "MARK1 (Homo sapiens, UniProt Q9P0L2)", "remaining activity": "98.5%"}
{"target": "YES1 (Homo sapiens, UniProt P07947)", "remaining activity": "87%"}
{"data": "Study 3", "cell line": "normal-adjacent organoid sample E", "method": "CellTiter-Glo", "concentration": "0.1 µM", "setting": "replicate mean", "reference": "DMSO"}
{"SMILES": "CCCCN(CCCC)C(=O)CN1C[C@H](c2cc(OC)c3c(c2)OCO3)[C@@H](C(=O)O)[C@@H]1CC(C)(C)CCC", "viability": "104%"}
{"SMILES": "O=C(O)[C@H]1[C@H](Cn2nnc3ccccc3c2=O)CC[C@@H]1C(=O)c1ccc(OCCC2CCOCC2)cc1", "viability": "108%"}
{"SMILES": "O=C(Nc1ccc(-n2nc(-c3cccnc3)cc2C(F)(F)F)cn1)c1ccc(-c2ccccc2)c(F)c1", "viability": "115%"}
{"SMILES": "CC(C)(C)OC(=O)N1CCCC1CNC1CCC(c2cc(F)ccc2F)(S(=O)(=O)c2ccc(Cl)cc2)CC1 (centres unmarked)", "viability": "110%"}
{"data": "Study 4", "target": "Interferon regulatory factor 3, full length, phosphomimetic (IRF3, Homo sapiens, UniProt Q14653, residues 1-427, S386D/S396D/S398D/S402D/T404D/S405D)", "method": "protein-binding microarray", "molecule type": "double-stranded DNA, one strand shown", "sample": "in vitro", "concentration": "2540 nM top", "setting": "60-bp whole probe", "together with": "salmon DNA 0.4 mg/ml", "reference": "random background probes", "reading": "higher = stronger binding", "constant ends, left off below": "GCCTAGCAC … GTCTTGATTCGCTTGACGCTGCTG", "Target sequence (chain)": "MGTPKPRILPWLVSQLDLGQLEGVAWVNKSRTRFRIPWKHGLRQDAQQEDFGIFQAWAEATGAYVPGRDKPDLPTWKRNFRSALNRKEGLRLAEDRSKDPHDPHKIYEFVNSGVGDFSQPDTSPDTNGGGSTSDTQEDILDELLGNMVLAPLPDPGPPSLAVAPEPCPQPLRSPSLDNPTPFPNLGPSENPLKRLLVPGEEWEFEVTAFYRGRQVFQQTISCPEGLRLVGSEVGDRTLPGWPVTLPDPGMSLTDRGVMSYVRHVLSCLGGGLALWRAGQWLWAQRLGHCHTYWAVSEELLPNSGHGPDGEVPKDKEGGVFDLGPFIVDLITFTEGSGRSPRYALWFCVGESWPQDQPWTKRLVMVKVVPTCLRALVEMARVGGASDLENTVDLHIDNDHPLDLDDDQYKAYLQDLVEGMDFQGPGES"}
{"Oligonucleotide": "TCACCTCTTTTTTTGGTACTGTGCTAG", "fitted relative affinity": "0.905 z-score"}
{"Oligonucleotide": "TCACCTATGTCATTTACACTGTGCTAG", "fitted relative affinity": "0.713 z-score"}
{"Oligonucleotide": "TTAGATTTCGGGTTTCTATTAGTGCTA", "fitted relative affinity": "2.65 z-score"}
{"Oligonucleotide": "GGCGGTCTCGGTCTCGGGACGTGCTAG", "fitted relative affinity": "0.95 z-score"}
{"Oligonucleotide": "TCAATTTTTTTTTTCATACTGTGCTAG", "fitted relative affinity": "0.906 z-score"}
{"Oligonucleotide": "CTTTTTTTCAAGAAACAGTTCGTGCTA", "fitted relative affinity": "2.81 z-score"}
{"Oligonucleotide": "AAGGGTCTCTTGTTCTCTCTGTGCTAG", "fitted relative affinity": "-0.48 z-score"}
{"Oligonucleotide": "GACGGTTTCGGACTGGGGGCGTGCTAG", "fitted relative affinity": "4.68 z-score"}
{"data": "Other studies, line by line"}
{"Structure (SMILES)": "CCOC(=O)[C@@H]1CSCC(=O)N[C@@H](CC)C(=O)N(C)[C@@H](C)C(=O)N[C@@H](CC(C)C)C(=O)N2CCC[C@H]2C(=O)N(CC(C)C)CC(=O)N[C@@H](CC(C)C)C(=O)N(C)[C@@H](C)C(=O)N[C@@H](CC(C)C)C(=O)N1C", "sample": "hydrocarbon/water", "endpoint": "logD", "result": 1.8}
{"note": "For quick reference, copied from above (study 2):"}
{"target": "BRSK2 (Homo sapiens, UniProt Q8IWQ3)", "remaining activity": "94.3%"}
{"target": "JAK2 (Homo sapiens, UniProt O60674)", "remaining activity": "103%"}
{"target": "PAK1 (Homo sapiens, UniProt Q13153)", "remaining activity": "96.3%"}
